# Results pooled from the literature.
# Values joined by “and” are separate records of one study, mostly repeats; a detail may differ. ± marks the error that the study gave.
Structure (SMILES),target or system,assay,system,setting,scale,quantity,value
CC[C@H](C)[C@H](NC(=O)[C@H](C)NC(=O)[C@H](CCCCN)NC(=O)[C@H](CCCCN)NC(=O)[C@@H](N)CCCNC(=N)N)C(=O)N[C@@H](CCCCN)C(=O)N[C@@H](CC(C)C)C(=O)N[C@H](C(=O)N[C@@H](CCCCN)C(=O)N[C@@H](CCCCN)C(=O)N[C@@H](CC(C)C)C(=O)N[C@H](C(=O)N[C@@H](CCCCN)C(=O)N[C@@H](CCCCN)C(=O)N[C@@H](CC(C)C)C(=O)N[C@@H](CCCCN)C(=O)N[C@@H](CCCCN)C(=O)N[C@@H](C)C(=O)N[C@@H](CC(C)C)C(=O)N[C@@H](CCCCN)C(=O)O)C(C)C)C(C)C,HaCaT,"cell growth or viability, MTT",,16 µg/mL,,viability,81.1%
CC[C@H](C)[C@H](NC(=O)[C@H](CCCCN)NC(=O)[C@H](CC(N)=O)NC(=O)CNC(=O)[C@@H](NC(=O)[C@H](C)NC(=O)[C@H](CCCNC(=N)N)NC(=O)[C@H](CC(C)C)NC(=O)[C@H](CCCCN)NC(=O)[C@H](CCCCN)NC(=O)[C@H](CCCCN)NC(=O)[C@H](C)NC(=O)[C@H](CCCCN)NC(=O)[C@@H]1CSSC[C@H](NC(=O)[C@H](CCCNC(=N)N)NC(=O)CN)C(=O)N[C@@H](CC(N)=O)C(=O)N[C@@H](CC(C)C)C(=O)N[C@@H](CC(C)C)C(=O)N1)C(C)C)C(=O)N[C@@H](CCCCN)C(=O)N[C@@H](CCC(=O)O)C(=O)N[C@H](C(=O)N[C@@H](CCCCN)C(=O)N[C@@H](CC(N)=O)C(=O)N[C@H](C(=O)N[C@H](C(=O)N[C@@H](Cc1ccccc1)C(=O)N[C@@H](CC(N)=O)C(=O)N[C@@H](CCCNC(=N)N)C(=O)O)C(C)C)C(C)C)[C@@H](C)CC,human erythrocytes,,,"20 µM, 30 min, 37 °C",baseline: Triton X-100,hemolysis,1.23 ± 1.14%
CC(=O)NCC(=O)N[C@@H](CCCNC(=N)N)C(=O)N[C@@H](CCCCN)C(=O)N[C@@H](CCCCN)C(=O)N[C@@H](CCCNC(=N)N)C(=O)N[C@@H](CCCNC(=N)N)C(=O)N[C@@H](CCC(N)=O)C(=O)N[C@@H](CCCNC(=N)N)C(=O)N[C@@H](CCCNC(=N)N)C(=O)N[C@@H](CCCNC(=N)N)C(=O)N1CCC[C@H]1C(=O)N[C@@H](CCC(N)=O)C(N)=O,HEK-293T,subcellular fractionation LC-MS,cytoplasmic fraction,"20 µM, 24 h",,concentration,25.7 nM and 26.4 nM and 25.2 nM
CC[C@H](C)[C@H](NC(=O)[C@@H](NC(=O)[C@H](CCCCN)NC(=O)[C@H](CCC(N)=O)NC(=O)[C@@H](NC(=O)[C@H](Cc1c[nH]c2ccccc12)NC(=O)[C@H](CCCCN)NC(=O)[C@H](CCCCN)NC(=O)[C@H](CC(C)C)NC(=O)[C@H](CCCNC(=N)N)NC(=O)[C@H](Cc1ccccc1)NC(=O)[C@@H](N)C(C)C)[C@@H](C)CC)C(C)C)C(N)=O,sheep red blood cells,10% haemolysis,,"1 h, 37 °C",,minimum haemolytic concentration,210 µM
O=C1NC2(CC2)COc2ncc(F)cc2[C@H]2COCCN2c2ccn3ncc1c3n2,,,"Sprague-Dawley rat, male, thymus","oral, 2.5 mg/kg/day, 4 weeks, end of treatment",,organ-to-body weight ratio,0.139 ± 0.034%
CCN(CCCCOc1ccc(CCC(=O)N2CCC(Cc3ccccc3)CC2)cc1OC)Cc1ccccc1,Caco-2 monolayer,,,"20 µM, 120 min",,Papp(A-B),8.84 ± 0.2 ×10⁻⁶ cm/s
CNC(=O)CC1CN(C(=O)c2ccc(C(F)(F)F)cn2)CCN1C(=O)c1cccnn1 (stereo not shown),Huh-7-ACE2,CellTiter-Glo,,"0.0244 µM, 48 h, unit not given",baseline: DMSO,viability,1.06 and 1 and 1.02
CC(C)Cc1ccc(C(C)C(=O)[O-])cc1.CC(C)Cc1ccc(C(C)C(=O)[O-])cc1.[Cu+2].c1ccncc1.c1ccncc1 (stereo not shown),MRC5,"cytotoxicity, MTT",,48 h,,IC50,> 100 µM
CC(=O)Oc1ccc(/C=C/C(=O)Oc2ccc(C(F)(F)F)c(C(F)(F)F)c2)cc1OC(C)=O,HaCaT,MTT,,"24 h, 10% FBS",,subcytotoxic concentration,15 µM
CCOc1ccc(CN2CC[C@H]2C(=O)NC)cc1-c1cccc(C(=O)NC[C@@H]2COC(C)(C)O2)c1,Huh-7-ACE2,CellTiter-Glo,,"0.0122 µM, 48 h, unit not given",baseline: DMSO,viability,0.934 and 1.01 and 0.861
